Results pooled from the literature.
Compare with care: the assays were run in different laboratories. Numbers after ± are the reported error.
MAPK14: Mitogen-activated protein kinase 14 (MAPK14, Homo sapiens, UniProt Q16539)
T1: RNA aptamer; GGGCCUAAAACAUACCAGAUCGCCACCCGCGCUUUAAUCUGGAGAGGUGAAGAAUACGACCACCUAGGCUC

SMILES	target	assay	system	setting	how to read	quantity	result
COc1c2c(cc3oc(=O)cc(-c4ccc(Cl)cc4)c13)C(=O)c1cc(C)cc(O)c1C2=O	mushroom tyrosinase	enzyme activity	–	100 µg/mL, with: L-DOPA	–	inhibition	86.34 ± 0.21%
CNC(=O)c1ccc2c(c1)N(C)S(=O)(=O)c1cnc(SC)nc1-2	Kinesin-like protein KIF15 (Homo sapiens, UniProt Q9NS87)	microtubule-dependent ATPase activity	–	5 µM, with: ATP 2 mM, microtubules	–	kcat	9 ± 1 s^–1
Cc1cc2c(c(O)c1O)C(=O)c1c(O)cc(O)cc1C2=O	AVPR1A (Homo sapiens, UniProt P37288)	calcium mobilization, agonist	CHO, transfected	50 µM	relative to: AVP 1 µM	stimulation	-11 ± 0.66%
CC(=O)NCCN(CC(=O)NCCN(CC(=O)NCCN(CC(=O)NCCC(N)=O)C(=O)C[C@@H](N)Cc1ccccc1)C(=O)C[C@@H](N)CCCNC(=N)N)C(=O)C[C@@H](N)Cc1ccccc1	HIV-1 TAR RNA	–	–	–	–	non-electrostatic TΔS°	0.86 ± 0.263 kcal/mol
CC(C)c1csc2nc[nH]c(=O)c12	MAPK14	enzyme activity	–	–	–	ligand efficiency	0.22
COc1ccc(CNC(=O)c2sc3nc(C)cc(C)c3c2N)cc1	Muscarinic acetylcholine receptor M4 (Rattus norvegicus, UniProt P08485)	–	–	–	relative to: acetylcholine	Emax	69%
CC1=CC(C)(C)N=C(Nc2nc(C)c3cc(C)cc(C)c3n2)N1	CD38 (Homo sapiens, UniProt P28907)	cyclase activity, fluorometric	–	50 µM, with: NGD+ substrate	relative to: untreated	remaining activity	60.9 ± 2.2%
C[C@@]1(O)c2cccc(O)c2C(=O)C2=C(O)[C@]3(O)C(=O)C(C(N)=O)=C(O)C(O)[C@@H]3C[C@@H]21 (stereo partly drawn)	T1, RNA aptamer	fluorescence titration	–	pH 7.5, 25 °C, MgCl2 10 mM	–	Kd	2.77 nM
NC(=O)C1CCNC(=O)C(CCCNC(=O)c2cnccn2)NC(=O)C(CC2CCCCC2)NC(=O)C(CC2CC2)NC(=O)C=CC(=O)N1 (stereo not drawn)	MAPK14	DNA-templated library selection	–	one selection round	–	enrichment factor	1.6
CC(=O)NCCN(CC(=O)NCCN(CC(=O)NCCN(CC(=O)NCCC(N)=O)C(=O)[C@@H](N)CCCNC(=N)N)C(=O)[C@@H](N)CCCCN)C(=O)[C@@H](N)Cc1ccccc1	HIV-1 TAR RNA	–	–	concentration not given	–	heat capacity change ΔCp	-2.9 ± 0.38 kJ/mol/K
CNc1ccccc1C(=O)O[C@H]1C[C@H](n2cnc3c(N)ncnc32)O[C@@H]1COP(=O)(O)OP(=O)(O)O	Unconventional myosin-Va (Gallus gallus, UniProt Q02440, D297C/G292C/I296C/S293C/V295G)	van't Hoff analysis	–	with: 10 mM Mg2+	–	ΔH of pocket step	-4.2 ± 2.8 kcal/mol
CCCC(=O)Nc1ccc(OC)nc1C	CES1 (Homo sapiens, UniProt P23141)	enzyme activity, substrate	–	–	relative to: CES1 over human CES2	specific activity ratio	0.5

A few entries again:
SMILES	target	assay	system	setting	how to read	quantity	result
CC(=O)NCCN(CC(=O)NCCN(CC(=O)NCCN(CC(=O)NCCC(N)=O)C(=O)C[C@@H](N)Cc1ccccc1)C(=O)C[C@@H](N)CCCNC(=N)N)C(=O)C[C@@H](N)Cc1ccccc1	HIV-1 TAR RNA	–	–	–	–	non-electrostatic TΔS°	0.86 ± 0.263 kcal/mol
